Literature values as cited in several papers.
Each line is one published result; not all experiments were run side by side. ≈ marks a conversion by molar mass, not a printed value.
Chain of UniProt Q8NEV4 (whole entry, looked up): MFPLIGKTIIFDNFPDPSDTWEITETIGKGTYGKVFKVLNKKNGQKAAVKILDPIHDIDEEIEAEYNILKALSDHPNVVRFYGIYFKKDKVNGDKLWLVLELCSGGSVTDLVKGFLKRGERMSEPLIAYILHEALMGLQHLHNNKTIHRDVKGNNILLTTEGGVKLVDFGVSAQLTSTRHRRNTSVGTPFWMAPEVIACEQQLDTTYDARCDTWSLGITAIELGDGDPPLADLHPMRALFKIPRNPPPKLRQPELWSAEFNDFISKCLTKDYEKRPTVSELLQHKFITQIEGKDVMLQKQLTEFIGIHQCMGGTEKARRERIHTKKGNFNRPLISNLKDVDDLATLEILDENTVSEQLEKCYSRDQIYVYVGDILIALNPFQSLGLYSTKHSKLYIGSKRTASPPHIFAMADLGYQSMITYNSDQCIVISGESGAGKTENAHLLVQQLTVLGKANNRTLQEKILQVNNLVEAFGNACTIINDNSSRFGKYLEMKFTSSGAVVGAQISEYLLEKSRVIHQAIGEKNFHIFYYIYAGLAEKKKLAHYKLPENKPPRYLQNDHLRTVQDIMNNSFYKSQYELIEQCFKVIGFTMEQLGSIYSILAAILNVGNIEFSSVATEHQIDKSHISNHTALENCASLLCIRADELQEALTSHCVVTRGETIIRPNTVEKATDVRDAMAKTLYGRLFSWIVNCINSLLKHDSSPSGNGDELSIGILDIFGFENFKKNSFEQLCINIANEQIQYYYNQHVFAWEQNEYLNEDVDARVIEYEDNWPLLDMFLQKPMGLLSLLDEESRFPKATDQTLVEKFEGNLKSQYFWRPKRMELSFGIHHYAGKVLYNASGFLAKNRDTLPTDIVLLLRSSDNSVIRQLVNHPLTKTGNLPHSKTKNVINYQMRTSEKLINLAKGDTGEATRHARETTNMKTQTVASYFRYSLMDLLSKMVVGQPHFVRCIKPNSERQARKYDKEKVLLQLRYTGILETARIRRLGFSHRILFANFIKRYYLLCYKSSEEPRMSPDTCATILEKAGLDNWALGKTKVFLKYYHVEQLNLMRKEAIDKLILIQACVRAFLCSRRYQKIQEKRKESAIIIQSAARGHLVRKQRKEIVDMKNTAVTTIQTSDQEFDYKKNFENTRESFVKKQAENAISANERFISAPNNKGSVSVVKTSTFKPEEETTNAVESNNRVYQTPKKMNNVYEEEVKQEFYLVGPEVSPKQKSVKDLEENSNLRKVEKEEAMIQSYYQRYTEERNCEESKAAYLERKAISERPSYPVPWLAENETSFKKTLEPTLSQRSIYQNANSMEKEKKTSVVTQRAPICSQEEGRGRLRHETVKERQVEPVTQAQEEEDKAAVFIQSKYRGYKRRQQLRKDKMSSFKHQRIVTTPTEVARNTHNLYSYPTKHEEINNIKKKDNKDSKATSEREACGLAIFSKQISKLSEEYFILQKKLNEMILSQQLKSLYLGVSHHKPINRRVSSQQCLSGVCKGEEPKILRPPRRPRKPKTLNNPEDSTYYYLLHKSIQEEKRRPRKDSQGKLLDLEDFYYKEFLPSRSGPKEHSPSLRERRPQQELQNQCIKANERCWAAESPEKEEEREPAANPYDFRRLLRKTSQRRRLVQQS

Structure (SMILES)	tested on	test	test system	conditions	scale	measurement	result
CC[C@@H](C(=O)Nc1ccc(C(N)=O)c(F)c1)n1cc(OC)c(-c2cc(Cl)ccc2-n2cc(C(F)(F)F)nn2)cc1=O	–	–	urine	concentration not given	–	fraction excreted unchanged	9%
CNC(C)C1CCC(N)C(OC2C(N)CC(N)C(OC3OCC(C)(O)C(NC)C3O)C2O)O1 (centres unmarked)	Acinetobacter baumannii	–	clinical isolate RKI-No_377/15	–	–	MIC	2 µg/mL (≈ 4.19 µM)
Nc1cc(C(F)(F)F)c(-c2nc(N3CCOCC3)nc(N3CCOCC3)n2)cn1	Myosin-IIIa (MYO3A, Homo sapiens, UniProt Q8NEV4)	enzyme activity	–	10 µM	relative to: untreated	remaining activity	86%
CO[C@H]1C[C@@H]2CC[C@@H](C)[C@@](O)(O2)C(=O)C(=O)N2CCCC[C@H]2C(=O)O[C@H]([C@H](C)C[C@@H]2CC[C@@H](O)[C@H](OC)C2)CC(=O)[C@H](C)/C=C(\C)[C@@H](O)[C@@H](OC)C(=O)[C@H](C)C[C@H](C)/C=C/C=C/C=C/1C	–	ADAM absorption model	–	–	–	fraction unbound in gut	1
O=C1Nc2ccc(Cl)cc2[C@@](C#CC2CC2)(C(F)(F)F)O1	–	–	plasma	–	–	fraction unbound in plasma	0.029
C[C@H](Cn1cnc2c(N)ncnc21)OCP(=O)(O)O	–	–	–	Simcyp first-order absorption	–	fraction absorbed	0.2
CC(O)C(C)n1ncn(-c2ccc(N3CCN(c4ccc(OCC5COC(Cn6cncn6)(c6ccc(Cl)cc6Cl)O5)cc4)CC3)cc2)c1=O (centres unmarked)	–	–	plasma	–	–	fraction unbound in plasma	0.016
CC(C)(CO)c1cc2cc(NC(=O)C3(c4ccc5c(c4)OC(F)(F)O5)CC3)c(F)cc2n1C[C@@H](O)CO	–	–	microsomal incubation	CYP2C9 Ki	–	fraction unbound	0.876
CC(C)(O/N=C(\C(=O)N[C@@H]1C(=O)N2C(C(=O)[O-])=C(C[n+]3ccccc3)CS[C@H]12)c1csc(N)n1)C(=O)O	Enterobacter cloacae	–	clinical isolate RKI-No_287/13	–	–	MIC	≤ 2 µg/mL
C[C@@H]1C[C@H]2[C@@H]3CCC4=CC(=O)C=C[C@]4(C)[C@@]3(F)[C@@H](O)C[C@]2(C)[C@@]1(O)C(=O)CO	–	–	plasma	Simcyp input parameter	–	fraction unbound in plasma	0.28
C[C@@H](O)[C@H]1C(=O)N2C(C(=O)O)=C(S[C@@H]3CN[C@H](C(=O)N(C)C)C3)[C@H](C)[C@H]12	–	–	healthy Chinese subjects	–	–	fraction excreted in urine	61%
